Published values collected from several papers.
Lines come from different studies, so protocols differ. ± marks the error that the study gave.
serotonin receptor-like protein: serotonin receptor-like protein (Schistosoma mansoni, UniProt A0A173FEI8)
coaD: Phosphopantetheine adenylyltransferase (coaD, Mycobacterium tuberculosis, UniProt P9WPA5)
Sequence of UniProt P9WPA5 (whole entry, looked up): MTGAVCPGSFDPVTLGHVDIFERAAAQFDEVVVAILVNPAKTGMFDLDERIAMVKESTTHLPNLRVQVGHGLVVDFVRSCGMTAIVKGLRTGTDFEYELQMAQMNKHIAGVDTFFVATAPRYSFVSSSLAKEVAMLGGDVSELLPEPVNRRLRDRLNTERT
ptpB: Triple specificity protein phosphatase PtpB (ptpB, Mycobacterium tuberculosis, UniProt I6WXK4)
Sequence of UniProt I6WXK4 (whole entry, looked up): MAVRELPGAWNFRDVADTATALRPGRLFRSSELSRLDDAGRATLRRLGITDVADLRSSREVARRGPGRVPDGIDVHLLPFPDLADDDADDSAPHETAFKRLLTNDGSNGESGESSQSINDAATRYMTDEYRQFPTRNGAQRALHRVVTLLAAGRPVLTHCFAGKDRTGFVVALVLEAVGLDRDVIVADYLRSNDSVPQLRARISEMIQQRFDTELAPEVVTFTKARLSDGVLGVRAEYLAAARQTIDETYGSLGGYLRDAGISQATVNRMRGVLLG
Sequence of UniProt P97678 (whole entry, looked up): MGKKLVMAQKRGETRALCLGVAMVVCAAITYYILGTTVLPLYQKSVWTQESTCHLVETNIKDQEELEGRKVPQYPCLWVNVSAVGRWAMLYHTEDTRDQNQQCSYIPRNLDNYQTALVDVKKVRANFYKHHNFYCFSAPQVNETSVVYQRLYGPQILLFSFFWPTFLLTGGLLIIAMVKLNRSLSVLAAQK
Sequence of UniProt P21554 (whole entry, looked up): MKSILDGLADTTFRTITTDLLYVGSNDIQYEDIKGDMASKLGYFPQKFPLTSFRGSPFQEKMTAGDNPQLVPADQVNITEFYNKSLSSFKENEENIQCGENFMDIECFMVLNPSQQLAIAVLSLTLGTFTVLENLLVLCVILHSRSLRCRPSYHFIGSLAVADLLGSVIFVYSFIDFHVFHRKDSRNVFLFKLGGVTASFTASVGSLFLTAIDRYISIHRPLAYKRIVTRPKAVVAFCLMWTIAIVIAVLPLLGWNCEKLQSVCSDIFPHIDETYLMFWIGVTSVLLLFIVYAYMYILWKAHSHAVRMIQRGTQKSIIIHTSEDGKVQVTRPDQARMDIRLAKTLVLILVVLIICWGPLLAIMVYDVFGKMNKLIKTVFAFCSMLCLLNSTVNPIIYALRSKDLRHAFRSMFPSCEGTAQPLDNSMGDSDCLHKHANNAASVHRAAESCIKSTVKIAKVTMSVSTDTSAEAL
Sequence of UniProt O60674 (whole entry, looked up): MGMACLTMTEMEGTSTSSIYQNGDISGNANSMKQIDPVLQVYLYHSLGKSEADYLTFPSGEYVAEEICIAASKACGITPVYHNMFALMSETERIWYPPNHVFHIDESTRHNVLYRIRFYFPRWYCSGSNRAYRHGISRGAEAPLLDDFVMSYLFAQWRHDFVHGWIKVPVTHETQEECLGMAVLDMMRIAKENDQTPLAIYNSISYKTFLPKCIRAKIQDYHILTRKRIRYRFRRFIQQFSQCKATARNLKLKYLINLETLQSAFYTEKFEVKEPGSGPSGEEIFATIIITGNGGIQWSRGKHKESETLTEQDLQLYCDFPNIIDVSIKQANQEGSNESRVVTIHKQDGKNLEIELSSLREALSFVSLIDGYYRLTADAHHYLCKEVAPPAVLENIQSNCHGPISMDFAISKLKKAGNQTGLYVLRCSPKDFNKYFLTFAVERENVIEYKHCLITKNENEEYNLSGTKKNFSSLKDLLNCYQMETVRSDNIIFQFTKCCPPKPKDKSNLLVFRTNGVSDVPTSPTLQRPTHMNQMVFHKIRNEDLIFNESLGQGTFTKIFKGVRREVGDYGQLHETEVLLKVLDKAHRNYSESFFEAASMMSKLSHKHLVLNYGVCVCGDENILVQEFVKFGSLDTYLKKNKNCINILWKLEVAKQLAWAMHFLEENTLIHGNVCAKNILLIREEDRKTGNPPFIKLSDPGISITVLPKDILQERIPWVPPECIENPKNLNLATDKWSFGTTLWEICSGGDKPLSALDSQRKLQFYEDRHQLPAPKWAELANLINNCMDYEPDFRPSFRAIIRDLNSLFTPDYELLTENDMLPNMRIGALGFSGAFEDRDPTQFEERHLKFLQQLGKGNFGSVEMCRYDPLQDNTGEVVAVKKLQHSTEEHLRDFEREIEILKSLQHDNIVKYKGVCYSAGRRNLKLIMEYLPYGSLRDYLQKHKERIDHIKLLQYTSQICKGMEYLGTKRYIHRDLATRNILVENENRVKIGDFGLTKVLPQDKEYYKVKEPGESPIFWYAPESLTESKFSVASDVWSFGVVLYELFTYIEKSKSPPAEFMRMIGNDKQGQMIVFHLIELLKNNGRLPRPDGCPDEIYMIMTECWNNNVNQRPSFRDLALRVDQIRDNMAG
Sequence of UniProt Q9Y2T6 (whole entry, looked up): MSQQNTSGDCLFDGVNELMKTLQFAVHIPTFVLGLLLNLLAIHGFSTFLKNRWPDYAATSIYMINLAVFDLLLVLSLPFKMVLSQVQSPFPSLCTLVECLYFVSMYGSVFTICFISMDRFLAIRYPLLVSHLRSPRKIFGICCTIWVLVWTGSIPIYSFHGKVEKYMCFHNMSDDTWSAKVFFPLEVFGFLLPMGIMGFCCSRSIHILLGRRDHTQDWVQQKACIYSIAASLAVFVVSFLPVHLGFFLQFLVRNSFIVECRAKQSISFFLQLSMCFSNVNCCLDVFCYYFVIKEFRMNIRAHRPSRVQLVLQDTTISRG

Compound | target or system | assay | system | conditions | scale | measurement | value
CCCC(CCC)C(=O)O | human coronavirus OC43 | virus-induced cell killing | MRC-5 | screen |  | maximum inhibition | 12.8%
Cc1ccc2[nH]cc(CCN)c2c1 | serotonin receptor-like protein | cAMP level, agonist, GloSensor luminescence |  |  | reference: 5-HT maximal response | Emax | 81 ± 2%
CO[C@H]1/C=C/O[C@@]2(C)Oc3c(C)c(O)c4c(O)c(c(/C=N/N5CCN(C)CC5)c(O)c4c3C2=O)NC(=O)/C(C)=C\C=C\[C@H](C)[C@H](O)[C@@H](C)[C@@H](O)[C@@H](C)[C@H](OC(C)=O)[C@@H]1C | dppA (Mycobacterium tuberculosis, UniProt I6X811) | thermal shift |  | dose response |  | thermal stabilization | inactive
Nc1ncnc2c1ncn2[C@@H]1O[C@H](COP(=O)(O)OP(=O)(O)OP(=O)(O)O)[C@@H](O)[C@H]1O | coaD | substrate |  | with: 4'-phosphopantetheine 40 µM |  | Km | 43 ± 3 µM
CN1CC[C@@]2(C)c3cc(OC(=O)Nc4ccccc4)ccc3N(C)[C@@H]12 | human nicotinic α4β4 receptor | radioligand binding |  | 10 µM, with: [3H]epibatidine |  | inhibition | 8.3%
O=C1Nc2ccc(S(=O)(=O)N(CCO)CCO)c3cccc1c23 | ptpB | enzyme activity, inhibitor |  | concentration not given |  | activity | inactive
COC(=O)[C@@H](NC(=O)c1nn(Cc2ccc(F)cc2)c2ccccc12)C(C)(C)C | Cannabinoid receptor 1, with Gi3 (CNR1, Homo sapiens, UniProt P21554) | GTP turnover, agonist, item: Gi3 Gα subtype |  |  |  | maximal efficacy | 133%
CNS(=O)(=O)c1ccc2c3c(cccc13)C(=O)N2 | ptpB | enzyme activity, inhibitor |  | concentration not given |  | activity | inactive
O=C1NC(=O)N(c2ccc(F)cc2)C(=O)/C1=C/c1cc(Br)ccc1OCc1cccc([N+](=O)[O-])c1 | Calcium-activated potassium channel subunit beta-1, with BK alpha subunit (Kcnmb1, Rattus norvegicus, UniProt P97678) | BK channel current | CHO with alpha and beta1 |  |  | Hill coefficient | 0.49 ± 0.12
CNCCc1c[nH]c2ccccc12 | serotonin receptor-like protein | cAMP level, agonist, GloSensor luminescence |  |  | reference: 5-HT maximal response | Emax | 15 ± 1%
CCCCCCCC[C@H]1O[C@H]1C/C=C/C=C/[C@H](O)CC(=O)NC1=C[C@](C)(CC)OC1=O | Na(+)-translocating NADH-quinone reductase subunit B, whole Na+-NQR complex (nqrB, Vibrio cholerae serotype O1, UniProt Q9KPS2) | isothermal titration calorimetry |  | 20 °C |  | −TΔS | 25 kcal/mol
CC(C)(C)c1cc(NC(=O)Nc2ccc(-c3cn4c(n3)sc3cc(OCCN5CCOCC5)ccc34)cc2)no1 | human coronavirus OC43 | virus-induced cell killing | MRC-5 | maximum over 10 doses |  | maximum inhibition | 1.45%
C[C@]12N[C@H](Cc3ccccc31)c1ccccc12 | NMDA receptor GluN1/GluN2D lacking NTD | ion current, inhibitor, oocyte voltage clamp |  | 200 nM |  | onset time constant | 5.5 ± 0.7 s
COc1ccc(N2C(=O)N(c3c(C)cccc3Cl)Cc3cnc(Nc4ccc(C5CCN(C)CC5)cc4OC)nc32)nc1 | Tyrosine-protein kinase JAK2 (JAK2, Homo sapiens, UniProt O60674) | kinase activity |  | 0.5 µM |  | inhibition | 5.36%
O=C1C=CC(=O)c2ccccc21 | Reaction center protein L chain, QB site (pufL, Cereibacter sphaeroides, UniProt P0C0Y8) |  | Rhodobacter sphaeroides, reaction centres | with: kBP 0 s^-1 |  | free energy difference | 480 meV
C[As](O)O | ArsV Ensifer adhaerens | enzyme activity, substrate, HPLC-ICP-MS |  | with: NADPH and FAD |  | Km | 6.4 µM
CC(NS(=O)(=O)c1ccc2c3c(cccc13)C(=O)N2)C1C2CC3CC(C2)CC1C3 (stereo not shown) | ptpB | enzyme activity, inhibitor |  | concentration not given |  | activity | inactive
O=C(O)c1cnn(-c2ccccc2)c1OCCCc1c[nH]c2ccccc12 | coaD | ITC |  | concentration not given | ligand per protomer | binding stoichiometry | 0.6
Oc1ccc2c3c1O[C@H]1[C@@H](O)CC[C@@]4(O)[C@@H](C2)N(CC2CCC2)CC[C@]314 | G-protein coupled receptor 55 (GPR55, Homo sapiens, UniProt Q9Y2T6) | β-arrestin recruitment, TANGO luminescence |  | concentration not given | reference: basal luminescence | log2 fold change | 0.181
CN[C@@]1(c2ccccc2Cl)CCCCC1=O | sigma receptor | radioligand binding, agonist, radioligand displacement |  | 30 µM |  | inhibition | 33%
NCCc1c[nH]c2ccc(Br)cc12 | serotonin receptor-like protein | cAMP level, agonist, GloSensor luminescence |  |  | reference: 5-HT maximal response | Emax | 65 ± 1%
O=C1Nc2ccc(S(=O)(=O)NCc3ccccc3)c3cccc1c23 | ptpB | enzyme activity, inhibitor |  | concentration not given |  | activity | inactive

Excerpt of the above:
Compound | target or system | assay | system | conditions | scale | measurement | value
Oc1ccc2c3c1O[C@H]1[C@@H](O)CC[C@@]4(O)[C@@H](C2)N(CC2CCC2)CC[C@]314 | G-protein coupled receptor 55 (GPR55, Homo sapiens, UniProt Q9Y2T6) | β-arrestin recruitment, TANGO luminescence |  | concentration not given | reference: basal luminescence | log2 fold change | 0.181
CN[C@@]1(c2ccccc2Cl)CCCCC1=O | sigma receptor | radioligand binding, agonist, radioligand displacement |  | 30 µM |  | inhibition | 33%
NCCc1c[nH]c2ccc(Br)cc12 | serotonin receptor-like protein | cAMP level, agonist, GloSensor luminescence |  |  | reference: 5-HT maximal response | Emax | 65 ± 1%
O=C1Nc2ccc(S(=O)(=O)NCc3ccccc3)c3cccc1c23 | ptpB | enzyme activity, inhibitor |  | concentration not given |  | activity | inactive
